{"data": "Experimental data from different studies", "note": "A part holds a random share of what one study measured. Positions count from the first letter of the parent shown."}
{"data": "Block 1", "target": "Histone acetyltransferase KAT6A, winged helix 1, GST fusion (KAT6A, Homo sapiens, UniProt Q92794, residues 1-85)", "technique": "protein binding microarray", "molecule type": "double-stranded DNA, one strand shown", "medium": "in vitro", "concentration": "not given", "setting": "8-mer, flanks averaged, mean of 2 arrays, mostly near background", "baseline": "not given", "direction": "higher = stronger binding", "Construct (chain)": "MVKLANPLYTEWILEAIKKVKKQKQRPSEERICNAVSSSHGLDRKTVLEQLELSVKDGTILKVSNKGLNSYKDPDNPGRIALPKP"}
{"Oligonucleotide": "CGATCTAG", "E-score": -0.134}
{"Oligonucleotide": "CCACCCGC", "E-score": 0.352}
{"Oligonucleotide": "GCAGATCC", "E-score": -0.0166}
{"Oligonucleotide": "CCATGGCA", "E-score": -0.0569}
{"Oligonucleotide": "CGGACCCC", "E-score": 0.214}
{"Oligonucleotide": "CATGCTCA", "E-score": -0.142}
{"Oligonucleotide": "AGGCAGGA", "E-score": -0.228}
{"Oligonucleotide": "CTTGACTC", "E-score": -0.0808}
{"Oligonucleotide": "TACGATAA", "E-score": 0.0229}
{"Oligonucleotide": "ACGATAAC", "E-score": -0.0762}
{"Oligonucleotide": "GGATAGTA", "E-score": -0.0192}
{"data": "Block 2", "target": "CCND2, cyclin fold, Cln2 fusion (human)", "technique": "yeast growth competition, sequencing", "medium": "yeast", "setting": "strong parent motif", "baseline": "not given", "direction": "higher = stronger binding", "parent": "INSM1 docking peptide (human); PKAIRKLHFEDEV; partner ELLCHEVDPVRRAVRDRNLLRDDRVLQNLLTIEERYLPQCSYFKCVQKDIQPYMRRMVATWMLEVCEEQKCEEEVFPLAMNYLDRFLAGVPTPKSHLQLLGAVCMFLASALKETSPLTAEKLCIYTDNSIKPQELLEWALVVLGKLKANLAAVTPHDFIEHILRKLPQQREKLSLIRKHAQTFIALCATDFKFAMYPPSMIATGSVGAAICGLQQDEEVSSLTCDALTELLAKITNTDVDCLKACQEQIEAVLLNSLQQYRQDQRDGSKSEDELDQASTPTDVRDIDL"}
{"Variant": "L7A", "normalised enrichment score": -0.0822}
{"Variant": "I4Y", "normalised enrichment score": 0.202}
{"Variant": "E12R", "normalised enrichment score": 1.37}
{"Variant": "R5L", "normalised enrichment score": 0.685}
{"Variant": "K6L", "normalised enrichment score": 0.915}
{"Variant": "F9C", "normalised enrichment score": -0.000619}
{"Variant": "K2N", "normalised enrichment score": 2.14}
{"Variant": "E12F", "normalised enrichment score": 1.71}
{"data": "Block 3", "target": "RNA binding protein fox-1 homolog 2, RRM domain, GST-SBP tag (RBFOX2, Homo sapiens, UniProt O43251-10, residues 100-194)", "technique": "RNA Bind-n-Seq", "molecule type": "RNA", "medium": "in vitro", "concentration": "365 nM", "setting": "natural RNA segment, single round, ends assumed", "baseline": "no-protein control", "direction": "higher = stronger binding", "shared flanks, not repeated": "GGGAGUUCUACAGUCCGACGAUC … UGGAAUUCUCGGGUGCCAA", "Residues (chain)": "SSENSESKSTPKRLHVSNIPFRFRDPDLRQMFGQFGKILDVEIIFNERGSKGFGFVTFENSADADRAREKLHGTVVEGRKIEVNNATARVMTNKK"}
{"Oligonucleotide": "GCCUUGUGCUGGGACAACCUCUCUCUUGCCUUACCUCAGAGAGGGACUAUGCCCUGACCCCUCCUUUCUGAAAAUCAGUGCCCUCCCUGUUGCUCUAGGAGGCUCCUGCU", "RBNS enrichment (R)": 0.349}
{"Oligonucleotide": "CUAGCCCAUAGUCAGUCUGUGUUCUUCCACAGUUGUUUACGGUAGCCUUUUCCUAUCCACUUCCCUUACCAAGUGUAUCCAAGCGUGCACCCACCUCCUCAUUGGAUGGC", "RBNS enrichment (R)": 0.85}
{"Oligonucleotide": "GCUUUGUGCUUGGCAUGUCGUUAUUUUCCAUUUGACAUUAGGGCCUUUCCAAAUGAAUGUGAGGAGUUGCUUUCACUUCAAGACUGUCCUUCUUUUCAGUAAAACUUUAG", "RBNS enrichment (R)": 1.15}
{"Oligonucleotide": "GCACACCCCCUCUCUGUCCUCAGACUGCAGUCCACACGUGCAACUUUUCUGUUUGCACGUGUUUUAUUAAUCAGCAUACUCCUUUUCUGUUUGGAUUUAUAUCCCUCUAA", "RBNS enrichment (R)": 0.742}
{"Oligonucleotide": "CAAAACACACAGAUAUUAUUAGAGAGACUUUACUUUCUAGUGCUGGAAUAACCAUGGAGCAAAGAGAACAGAAUCCCAUUCCAAGAGUCCCUCUCUCUCCAACAUCUUGA", "RBNS enrichment (R)": 0.432}
{"Oligonucleotide": "UCAACACAAAGUCUACUUAUGCUUCUUUGCAUUAUGGUUAAACAAUUAAAAAAAAAAAAAGGACUCACUCUGCCUGCCGGCUGGUGUCUUUUAUUCUACUGGGUUGGAAU", "RBNS enrichment (R)": 0.456}
{"Oligonucleotide": "UGUCUCCUUCCUGGAGAGGCUAUUAGGAGCCUUGUUGCUGGGGUGCAUAUGCUUAUAUGUGAAUGUGUCCACAAAUCCCACCCCCUCUCCGUUCUGUCCCCCAUUCAAGG", "RBNS enrichment (R)": 0.39}
{"Oligonucleotide": "GGGUUCUCUGAUAACCUAUGGGAAUGUUUGGAUGCCAGUUGGGCUAGUGAAUCGCCACUGUACUGUAAUAAUGGUUAUUUACCUCUGUGCUGUUUUAAUUACCUAACGUC", "RBNS enrichment (R)": 1.59}
{"Oligonucleotide": "CCCUGAUUACACAGAACCUUUCUGGGCUACUUGGAGCAUCACGAAUAGUCUUUCCUGUACUUACCAGAUUUCAAGUAUUCAUAACUUGACUCCCUAAGUGUACAAGUUGG", "RBNS enrichment (R)": 0.279}
{"data": "Mixed results"}
{"Substance": "PhoQ, residues 284 288 289 292 302 303 AGCYAI", "target": "PhoP, residues 12 14 15 18 19 GHCSL (Escherichia coli, UniProt P23836)", "test": "Sort-seq, item: YFP reporter", "test system": "E. coli", "setting": "PhoQ-PhoP variant library, with: 10 µM Mg2+", "how to read": "baseline: high Mg2+ state, higher = stronger signaling", "quantity": "fold induction", "value": 12.9}
{"note": "A few entries again (block 1):"}
{"Oligonucleotide": "GCAGATCC", "E-score": -0.0166}
{"Oligonucleotide": "CCATGGCA", "E-score": -0.0569}
{"Oligonucleotide": "CGGACCCC", "E-score": 0.214}
